Published values pooled from the literature.
Lines come from different studies, so protocols differ. ± gives the spread as reported.
60 kDa heat shock protein, mitochondrial with HSP10: 60 kDa heat shock protein, mitochondrial, with HSP10 (Homo sapiens, UniProt P10809)
UniProt P10809, sequence (whole entry, looked up): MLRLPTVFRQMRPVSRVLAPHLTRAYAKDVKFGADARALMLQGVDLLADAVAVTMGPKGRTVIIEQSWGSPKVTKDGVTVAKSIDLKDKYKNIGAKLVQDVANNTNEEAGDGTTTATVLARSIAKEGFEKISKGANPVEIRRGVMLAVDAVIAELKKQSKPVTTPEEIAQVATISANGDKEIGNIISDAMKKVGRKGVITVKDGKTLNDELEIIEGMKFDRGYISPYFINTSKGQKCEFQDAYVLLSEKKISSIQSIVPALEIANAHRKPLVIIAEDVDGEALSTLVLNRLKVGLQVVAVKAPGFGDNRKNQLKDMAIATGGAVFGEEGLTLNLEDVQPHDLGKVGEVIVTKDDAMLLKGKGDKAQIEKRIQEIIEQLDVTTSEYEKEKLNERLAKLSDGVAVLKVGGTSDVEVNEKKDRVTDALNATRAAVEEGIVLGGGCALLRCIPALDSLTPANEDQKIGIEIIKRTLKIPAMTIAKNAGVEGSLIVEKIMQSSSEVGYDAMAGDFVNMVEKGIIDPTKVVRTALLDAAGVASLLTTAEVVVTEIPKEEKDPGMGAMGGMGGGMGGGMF
Gria2/Glutamate receptor 3: Gria2/Glutamate receptor 3 (Rattus norvegicus, UniProt P19491+P19492)
UniProt P19492, sequence (whole entry, looked up): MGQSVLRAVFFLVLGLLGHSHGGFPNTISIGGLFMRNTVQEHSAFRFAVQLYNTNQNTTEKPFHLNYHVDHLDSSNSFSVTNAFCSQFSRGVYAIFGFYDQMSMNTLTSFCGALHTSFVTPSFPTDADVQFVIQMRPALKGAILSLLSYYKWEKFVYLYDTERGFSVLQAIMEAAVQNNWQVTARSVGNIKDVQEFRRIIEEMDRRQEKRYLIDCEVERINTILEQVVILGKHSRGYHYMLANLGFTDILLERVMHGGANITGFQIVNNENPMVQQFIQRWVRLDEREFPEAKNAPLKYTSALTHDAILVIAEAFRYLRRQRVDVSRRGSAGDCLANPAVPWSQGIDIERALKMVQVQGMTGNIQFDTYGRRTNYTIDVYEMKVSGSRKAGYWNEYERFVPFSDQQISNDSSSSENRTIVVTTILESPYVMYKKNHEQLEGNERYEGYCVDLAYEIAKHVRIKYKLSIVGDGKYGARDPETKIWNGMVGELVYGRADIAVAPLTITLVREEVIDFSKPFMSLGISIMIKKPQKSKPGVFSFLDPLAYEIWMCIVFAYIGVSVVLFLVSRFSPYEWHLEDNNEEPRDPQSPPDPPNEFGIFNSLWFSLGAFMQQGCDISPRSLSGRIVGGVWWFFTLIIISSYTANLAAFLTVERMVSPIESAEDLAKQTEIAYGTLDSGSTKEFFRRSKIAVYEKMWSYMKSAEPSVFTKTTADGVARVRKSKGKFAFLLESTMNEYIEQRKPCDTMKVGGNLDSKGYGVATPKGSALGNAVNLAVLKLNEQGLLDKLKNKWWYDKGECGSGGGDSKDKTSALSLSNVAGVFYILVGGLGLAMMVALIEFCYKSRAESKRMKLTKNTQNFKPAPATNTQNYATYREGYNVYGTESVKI
UniProt P19491, sequence (whole entry, looked up): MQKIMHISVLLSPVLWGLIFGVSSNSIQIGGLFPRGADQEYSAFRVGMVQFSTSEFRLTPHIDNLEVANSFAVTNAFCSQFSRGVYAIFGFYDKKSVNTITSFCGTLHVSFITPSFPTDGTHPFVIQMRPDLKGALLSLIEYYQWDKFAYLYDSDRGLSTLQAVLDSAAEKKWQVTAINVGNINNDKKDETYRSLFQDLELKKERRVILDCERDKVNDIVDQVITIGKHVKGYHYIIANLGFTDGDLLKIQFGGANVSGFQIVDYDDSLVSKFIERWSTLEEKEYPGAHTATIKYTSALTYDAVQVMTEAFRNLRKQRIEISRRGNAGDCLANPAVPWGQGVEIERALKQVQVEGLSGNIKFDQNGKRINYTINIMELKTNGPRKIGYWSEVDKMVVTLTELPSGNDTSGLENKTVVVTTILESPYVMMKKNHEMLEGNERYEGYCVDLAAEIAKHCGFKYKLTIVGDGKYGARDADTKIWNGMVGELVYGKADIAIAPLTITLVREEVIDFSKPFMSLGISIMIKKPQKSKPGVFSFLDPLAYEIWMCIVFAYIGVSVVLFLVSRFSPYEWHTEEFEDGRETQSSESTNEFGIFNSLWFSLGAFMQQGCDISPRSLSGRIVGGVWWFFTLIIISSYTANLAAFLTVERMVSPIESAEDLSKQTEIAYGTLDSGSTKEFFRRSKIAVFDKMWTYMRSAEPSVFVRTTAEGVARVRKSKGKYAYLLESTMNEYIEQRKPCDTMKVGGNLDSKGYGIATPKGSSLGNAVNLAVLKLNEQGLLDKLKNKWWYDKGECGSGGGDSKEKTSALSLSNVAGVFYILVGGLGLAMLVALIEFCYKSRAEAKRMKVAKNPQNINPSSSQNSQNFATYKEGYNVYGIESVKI
UniProt P11229, sequence (whole entry, looked up): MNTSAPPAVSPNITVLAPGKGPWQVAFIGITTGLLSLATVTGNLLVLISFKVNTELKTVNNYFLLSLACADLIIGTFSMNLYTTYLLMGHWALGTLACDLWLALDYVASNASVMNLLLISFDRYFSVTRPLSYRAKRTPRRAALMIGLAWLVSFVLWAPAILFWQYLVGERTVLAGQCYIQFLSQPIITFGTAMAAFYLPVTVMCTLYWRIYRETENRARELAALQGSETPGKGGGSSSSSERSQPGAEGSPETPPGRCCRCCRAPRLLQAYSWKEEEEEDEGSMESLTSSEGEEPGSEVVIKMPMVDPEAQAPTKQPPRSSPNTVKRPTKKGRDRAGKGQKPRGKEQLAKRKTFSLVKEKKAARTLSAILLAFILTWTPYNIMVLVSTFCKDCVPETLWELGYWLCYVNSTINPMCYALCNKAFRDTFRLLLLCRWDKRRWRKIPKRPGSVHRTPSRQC
UniProt Q96GD4, sequence (whole entry, looked up): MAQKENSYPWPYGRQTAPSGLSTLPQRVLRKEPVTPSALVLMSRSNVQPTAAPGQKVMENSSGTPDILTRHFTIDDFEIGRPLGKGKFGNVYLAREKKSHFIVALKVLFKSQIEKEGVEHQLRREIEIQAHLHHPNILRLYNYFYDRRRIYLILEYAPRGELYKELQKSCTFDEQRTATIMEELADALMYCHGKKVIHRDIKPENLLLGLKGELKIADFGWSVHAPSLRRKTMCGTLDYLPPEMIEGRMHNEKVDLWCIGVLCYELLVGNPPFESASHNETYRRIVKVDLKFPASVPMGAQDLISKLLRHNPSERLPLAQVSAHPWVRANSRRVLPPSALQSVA
UniProt P23141, sequence (whole entry, looked up): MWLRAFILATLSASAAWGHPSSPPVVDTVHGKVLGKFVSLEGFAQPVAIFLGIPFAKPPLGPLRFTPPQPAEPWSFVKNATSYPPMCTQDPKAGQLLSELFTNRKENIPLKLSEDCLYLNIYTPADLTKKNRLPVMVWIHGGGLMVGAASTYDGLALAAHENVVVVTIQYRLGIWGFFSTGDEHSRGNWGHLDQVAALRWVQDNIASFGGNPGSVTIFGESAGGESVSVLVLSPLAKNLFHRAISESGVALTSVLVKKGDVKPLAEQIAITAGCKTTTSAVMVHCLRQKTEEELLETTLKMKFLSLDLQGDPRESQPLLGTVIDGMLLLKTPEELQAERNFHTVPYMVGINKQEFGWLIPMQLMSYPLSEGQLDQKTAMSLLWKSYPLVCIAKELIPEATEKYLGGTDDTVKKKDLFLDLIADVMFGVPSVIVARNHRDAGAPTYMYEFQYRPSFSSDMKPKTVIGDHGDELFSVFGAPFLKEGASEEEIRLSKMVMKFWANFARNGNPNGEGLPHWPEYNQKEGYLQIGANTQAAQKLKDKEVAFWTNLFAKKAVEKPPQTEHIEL
UniProt P07550, sequence (whole entry, unmodified, looked up): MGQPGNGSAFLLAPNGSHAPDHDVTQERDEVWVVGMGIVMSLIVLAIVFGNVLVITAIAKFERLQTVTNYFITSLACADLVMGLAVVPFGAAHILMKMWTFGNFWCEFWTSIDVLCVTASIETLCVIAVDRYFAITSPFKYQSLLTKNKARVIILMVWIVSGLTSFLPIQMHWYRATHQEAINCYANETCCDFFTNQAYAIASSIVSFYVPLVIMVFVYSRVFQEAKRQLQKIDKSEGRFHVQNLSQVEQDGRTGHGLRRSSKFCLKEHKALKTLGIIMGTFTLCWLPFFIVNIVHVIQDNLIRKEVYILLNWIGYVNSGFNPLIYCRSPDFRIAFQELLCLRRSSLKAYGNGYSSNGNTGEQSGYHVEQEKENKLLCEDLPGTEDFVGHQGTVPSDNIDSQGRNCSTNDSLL
UniProt P68400, sequence (whole entry, looked up): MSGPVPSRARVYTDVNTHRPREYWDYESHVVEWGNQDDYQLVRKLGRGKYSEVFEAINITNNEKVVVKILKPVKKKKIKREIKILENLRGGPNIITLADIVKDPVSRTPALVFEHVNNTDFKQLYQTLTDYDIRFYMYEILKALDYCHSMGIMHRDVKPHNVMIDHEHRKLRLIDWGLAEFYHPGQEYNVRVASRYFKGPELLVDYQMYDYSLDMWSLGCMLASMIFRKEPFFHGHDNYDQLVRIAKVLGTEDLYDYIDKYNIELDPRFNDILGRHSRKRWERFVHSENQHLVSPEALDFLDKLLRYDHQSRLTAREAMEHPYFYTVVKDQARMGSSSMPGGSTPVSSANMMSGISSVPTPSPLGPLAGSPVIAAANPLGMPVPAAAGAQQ
UniProt P14902, sequence (whole entry, looked up): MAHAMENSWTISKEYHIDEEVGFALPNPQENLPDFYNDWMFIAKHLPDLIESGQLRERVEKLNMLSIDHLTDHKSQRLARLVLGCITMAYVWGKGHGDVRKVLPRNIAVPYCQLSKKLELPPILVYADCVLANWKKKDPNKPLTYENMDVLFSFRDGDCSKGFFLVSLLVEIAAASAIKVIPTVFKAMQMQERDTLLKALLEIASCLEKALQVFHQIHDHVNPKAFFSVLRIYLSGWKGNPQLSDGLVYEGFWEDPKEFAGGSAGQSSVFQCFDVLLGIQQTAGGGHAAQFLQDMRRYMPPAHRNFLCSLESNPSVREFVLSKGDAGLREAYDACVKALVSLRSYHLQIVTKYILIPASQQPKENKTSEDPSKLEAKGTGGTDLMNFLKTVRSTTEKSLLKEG

C#CCCn1nc(C)c2c(Cl)c(C(=O)NCC3CC(Br)=NO3)cnc21 (stereo not shown) — IC50 (60 kDa heat shock protein, mitochondrial with HSP10; ATPase activity; 30 min, with: HSP10): > 250 µM
O=C(Nc1ccc(OC(F)(F)F)cc1)N1CCC(Cc2cccc(Oc3ccc(C(F)(F)F)cn3)c2)CC1 — IC50 (CES1 (Homo sapiens, UniProt P23141); enzyme activity, inhibitor): > 10 µM
CC(C)(C)n1ncc2c(=O)n(Cc3cccc(F)c3)c(NCc3ccc(F)cn3)nc21 — IC50 (PDE9A (Homo sapiens, UniProt O76083); enzyme activity, inhibitor): > 10 µM
COC(=O)Cc1cc2c(cc1C(=O)c1cccc(I)c1)OCO2 — IC50 (Gria2/Glutamate receptor 3; ion current, antagonist, patch clamp): 5.89 µM
C[C@H]1CN(c2cc(=O)n(C)c3ccc(C#N)nc23)[C@@H](C)CN1Cc1ccc(S(=O)(=O)n2cnc(C3CC3)n2)cc1 — IC50 (DGKZ (Homo sapiens, UniProt Q13574); inhibitor, ADP-Glo; with: DAG micelles): 4.2 µM
CC(C)C[C@@H](NC(=O)C(=O)O)C(=O)O — IC50 (KDM4E (Homo sapiens, UniProt B2RXH2); enzyme activity, inhibitor): > 1000 µM
COc1ccc(CNC(=O)c2cnc3c(c(C)nn3C)c2Cl)cc1 — IC50 (60 kDa heat shock protein, mitochondrial with HSP10; HSP60/10-mediated MDH refolding; 30 min, preincubation before ATP, with: denatured malate dehydrogenase): 8.9 µM
Cc1nn(-c2cccc(N)c2)c(=O)c2cnc(Nc3ccc(N4CCNCC4)cc3)nc12 — IC50 (Aurora kinase B (AURKB, Homo sapiens, UniProt Q96GD4); enzyme activity, inhibitor): > 10 µM
CCCNCC(O)COc1ccccc1C(=O)CCc1ccccc1 (stereo not shown) — IC50 (PKD2L1 (Homo sapiens, UniProt Q9P0L9, F514A); ion current): 1.3 µM
COC(=O)Cc1cc2c(cc1C(=O)c1ccccc1)OCO2 — IC50 (Gria2/Glutamate receptor 3; ion current, antagonist, patch clamp): 6.17 µM
Fc1ccc(Nc2nc(NC3CCCCC3)c3cc(Br)ccc3n2)cc1F — IC50 (ADRB2 (Homo sapiens, UniProt P07550, L155C); β-arrestin2 recruitment, antagonist, BRET; HEK293; mutant L155C, with: isoprenaline 1 µM): 0.2 µM
Cc1ccc(Nc2cc(NC3CC3)n3ncc(C#N)c3n2)cc1NC(=O)C1CC1 — IC50 (CSNK2A1 (Homo sapiens, UniProt P68400); target engagement in cells, BRET): 7.7 µM
O=C(CCNC(=O)CNC(=O)CC(c1ccccc1)(c1ccccc1)c1ccccc1)NC[C@@H]1CCCN(C(=O)c2ccc(F)cc2)C1 — IC50 (CHRM1 (Homo sapiens, UniProt P11229); ligand displacement, radioligand; cell membranes): > 30 µM
O=C(O)Cc1cc2c(cc1C(=O)c1ccc(Cl)cc1Cl)OCO2 — IC50 (Gria2/Glutamate receptor 3; ion current, antagonist, patch clamp): 3.98 µM
Cc1oc(C)c(-c2ccc(N(CC(C)C)C3CCCCC3)c(NC(=O)Nc3ccc4c(c3)B(O)OC4)c2)c1C(=O)O — IC50 (IDO1 (Homo sapiens, UniProt P14902); enzyme activity, inhibitor, recombinant enzyme, refers to: kynurenine; 20 min, 2% DMSO, with: L-tryptophan): 32 ± 5 µM
COc1c(Cl)cccc1Nc1c(-c2ccncc2C#C[C@@]2(C)CCCN2C(=O)/C=C/CN(C)C)[nH]c2c1C(=O)NCC2 — IC50 (MAPK10 (Homo sapiens, UniProt P53779)): 1.5 µM

A few entries again:
O=C(Nc1ccc(OC(F)(F)F)cc1)N1CCC(Cc2cccc(Oc3ccc(C(F)(F)F)cn3)c2)CC1 — IC50 (CES1 (Homo sapiens, UniProt P23141); enzyme activity, inhibitor): > 10 µM
